Assay results from different studies.
Lines come from different studies, so protocols differ. Values joined by “and” are separate records of one study, mostly repeats; a detail may differ. Numbers after ± are the reported error.
RIPK1: Receptor-interacting serine/threonine-protein kinase 1 (RIPK1, Homo sapiens, UniProt Q13546)
UniProt Q13546, sequence (whole entry, looked up): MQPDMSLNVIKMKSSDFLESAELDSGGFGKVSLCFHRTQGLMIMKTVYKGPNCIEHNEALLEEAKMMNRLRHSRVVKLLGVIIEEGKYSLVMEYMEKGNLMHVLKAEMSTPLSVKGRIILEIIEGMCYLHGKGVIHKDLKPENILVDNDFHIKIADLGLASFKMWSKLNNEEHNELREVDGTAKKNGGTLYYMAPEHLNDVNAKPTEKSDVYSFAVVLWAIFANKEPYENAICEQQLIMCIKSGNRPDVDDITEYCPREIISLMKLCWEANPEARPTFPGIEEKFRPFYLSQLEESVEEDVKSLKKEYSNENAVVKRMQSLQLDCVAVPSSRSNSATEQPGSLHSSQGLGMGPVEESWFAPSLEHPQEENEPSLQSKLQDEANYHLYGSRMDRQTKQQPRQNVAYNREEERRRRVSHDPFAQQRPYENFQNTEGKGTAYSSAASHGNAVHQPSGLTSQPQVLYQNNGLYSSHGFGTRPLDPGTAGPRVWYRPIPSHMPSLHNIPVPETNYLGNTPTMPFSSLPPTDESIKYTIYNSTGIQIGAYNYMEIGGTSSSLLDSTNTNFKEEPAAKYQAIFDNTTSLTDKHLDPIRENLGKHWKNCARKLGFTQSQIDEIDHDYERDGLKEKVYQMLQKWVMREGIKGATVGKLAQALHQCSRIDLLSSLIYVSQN
MAOB: Amine oxidase [flavin-containing] B (MAOB, Homo sapiens, UniProt P27338)
UniProt P27338, sequence (whole entry, looked up): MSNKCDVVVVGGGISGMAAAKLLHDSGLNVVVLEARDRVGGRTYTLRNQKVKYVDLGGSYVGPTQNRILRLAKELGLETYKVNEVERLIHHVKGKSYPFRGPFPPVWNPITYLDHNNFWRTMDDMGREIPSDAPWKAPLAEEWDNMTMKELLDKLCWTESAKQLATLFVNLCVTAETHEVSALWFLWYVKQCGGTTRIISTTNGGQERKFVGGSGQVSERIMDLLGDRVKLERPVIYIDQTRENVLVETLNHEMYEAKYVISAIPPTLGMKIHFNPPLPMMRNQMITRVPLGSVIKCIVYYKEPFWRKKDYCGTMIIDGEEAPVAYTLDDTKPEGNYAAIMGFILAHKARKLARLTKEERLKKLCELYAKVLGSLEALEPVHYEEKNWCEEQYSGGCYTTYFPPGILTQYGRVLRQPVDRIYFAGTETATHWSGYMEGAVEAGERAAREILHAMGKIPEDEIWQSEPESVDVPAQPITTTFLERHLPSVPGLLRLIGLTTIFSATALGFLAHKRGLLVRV
UniProt Q96KQ7, sequence (whole entry, looked up): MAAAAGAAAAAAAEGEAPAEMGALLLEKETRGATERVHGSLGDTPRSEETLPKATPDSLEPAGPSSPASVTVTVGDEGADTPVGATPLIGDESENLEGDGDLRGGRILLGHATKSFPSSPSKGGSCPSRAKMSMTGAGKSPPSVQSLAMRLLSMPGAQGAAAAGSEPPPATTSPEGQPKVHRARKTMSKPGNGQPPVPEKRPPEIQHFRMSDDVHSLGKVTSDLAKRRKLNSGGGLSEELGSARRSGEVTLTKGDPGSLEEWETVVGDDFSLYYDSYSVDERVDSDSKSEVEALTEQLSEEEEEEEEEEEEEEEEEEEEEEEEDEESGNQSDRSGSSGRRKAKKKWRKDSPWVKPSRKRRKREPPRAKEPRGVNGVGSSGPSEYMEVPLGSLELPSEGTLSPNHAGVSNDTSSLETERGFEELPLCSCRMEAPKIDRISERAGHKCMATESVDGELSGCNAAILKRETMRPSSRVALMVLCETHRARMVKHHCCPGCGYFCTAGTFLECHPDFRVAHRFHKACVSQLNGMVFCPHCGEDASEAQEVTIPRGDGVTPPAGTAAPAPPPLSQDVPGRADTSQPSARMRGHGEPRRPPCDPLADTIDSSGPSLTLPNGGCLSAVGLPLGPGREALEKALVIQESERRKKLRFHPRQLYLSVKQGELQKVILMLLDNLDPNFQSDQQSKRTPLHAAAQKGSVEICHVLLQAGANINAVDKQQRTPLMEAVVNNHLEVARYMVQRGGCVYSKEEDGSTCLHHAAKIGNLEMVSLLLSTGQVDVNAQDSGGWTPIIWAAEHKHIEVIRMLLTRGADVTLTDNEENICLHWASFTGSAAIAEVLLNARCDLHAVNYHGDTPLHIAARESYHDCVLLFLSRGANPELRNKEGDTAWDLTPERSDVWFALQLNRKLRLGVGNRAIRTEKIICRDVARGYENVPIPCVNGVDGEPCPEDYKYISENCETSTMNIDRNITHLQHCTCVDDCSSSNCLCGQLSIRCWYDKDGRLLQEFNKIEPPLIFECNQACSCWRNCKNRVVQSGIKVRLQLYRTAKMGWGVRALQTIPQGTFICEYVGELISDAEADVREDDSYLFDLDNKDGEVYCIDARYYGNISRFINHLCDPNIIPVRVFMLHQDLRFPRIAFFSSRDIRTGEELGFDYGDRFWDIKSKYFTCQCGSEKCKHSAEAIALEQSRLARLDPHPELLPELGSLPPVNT
UniProt Q8R431, sequence (whole entry, looked up): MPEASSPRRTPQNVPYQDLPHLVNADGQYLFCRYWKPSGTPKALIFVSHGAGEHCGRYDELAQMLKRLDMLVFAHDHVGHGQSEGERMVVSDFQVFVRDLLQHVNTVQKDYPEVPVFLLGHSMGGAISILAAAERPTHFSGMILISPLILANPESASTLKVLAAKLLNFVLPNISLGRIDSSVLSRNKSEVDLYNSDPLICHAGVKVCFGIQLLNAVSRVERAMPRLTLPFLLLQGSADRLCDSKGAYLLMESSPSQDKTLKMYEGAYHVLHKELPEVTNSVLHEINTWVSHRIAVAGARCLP
UniProt P22071, sequence (whole entry, looked up): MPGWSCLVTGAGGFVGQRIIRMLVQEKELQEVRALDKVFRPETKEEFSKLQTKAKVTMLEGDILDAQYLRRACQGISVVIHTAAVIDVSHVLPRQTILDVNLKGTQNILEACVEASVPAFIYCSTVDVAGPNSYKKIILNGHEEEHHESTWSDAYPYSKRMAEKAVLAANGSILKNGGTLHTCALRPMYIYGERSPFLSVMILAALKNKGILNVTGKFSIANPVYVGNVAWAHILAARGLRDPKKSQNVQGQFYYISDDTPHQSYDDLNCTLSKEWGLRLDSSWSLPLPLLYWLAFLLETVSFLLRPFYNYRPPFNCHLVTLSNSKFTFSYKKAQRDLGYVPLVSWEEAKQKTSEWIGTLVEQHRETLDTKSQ
UniProt P34914, sequence (whole entry, looked up): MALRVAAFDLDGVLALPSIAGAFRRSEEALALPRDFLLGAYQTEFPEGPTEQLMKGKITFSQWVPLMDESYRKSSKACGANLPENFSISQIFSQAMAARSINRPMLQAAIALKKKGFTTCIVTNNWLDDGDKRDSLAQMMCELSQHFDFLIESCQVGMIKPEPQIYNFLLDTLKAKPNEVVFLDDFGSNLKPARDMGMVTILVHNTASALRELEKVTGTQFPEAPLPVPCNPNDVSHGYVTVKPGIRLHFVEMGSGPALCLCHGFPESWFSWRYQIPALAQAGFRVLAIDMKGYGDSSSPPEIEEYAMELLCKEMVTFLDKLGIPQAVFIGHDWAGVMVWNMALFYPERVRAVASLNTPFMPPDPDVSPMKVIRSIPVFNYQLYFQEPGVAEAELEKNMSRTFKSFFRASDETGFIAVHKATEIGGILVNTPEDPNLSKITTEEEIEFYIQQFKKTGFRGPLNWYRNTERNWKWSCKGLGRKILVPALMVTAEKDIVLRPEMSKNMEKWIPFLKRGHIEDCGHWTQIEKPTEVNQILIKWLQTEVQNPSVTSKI
UniProt P09917, sequence (whole entry, looked up): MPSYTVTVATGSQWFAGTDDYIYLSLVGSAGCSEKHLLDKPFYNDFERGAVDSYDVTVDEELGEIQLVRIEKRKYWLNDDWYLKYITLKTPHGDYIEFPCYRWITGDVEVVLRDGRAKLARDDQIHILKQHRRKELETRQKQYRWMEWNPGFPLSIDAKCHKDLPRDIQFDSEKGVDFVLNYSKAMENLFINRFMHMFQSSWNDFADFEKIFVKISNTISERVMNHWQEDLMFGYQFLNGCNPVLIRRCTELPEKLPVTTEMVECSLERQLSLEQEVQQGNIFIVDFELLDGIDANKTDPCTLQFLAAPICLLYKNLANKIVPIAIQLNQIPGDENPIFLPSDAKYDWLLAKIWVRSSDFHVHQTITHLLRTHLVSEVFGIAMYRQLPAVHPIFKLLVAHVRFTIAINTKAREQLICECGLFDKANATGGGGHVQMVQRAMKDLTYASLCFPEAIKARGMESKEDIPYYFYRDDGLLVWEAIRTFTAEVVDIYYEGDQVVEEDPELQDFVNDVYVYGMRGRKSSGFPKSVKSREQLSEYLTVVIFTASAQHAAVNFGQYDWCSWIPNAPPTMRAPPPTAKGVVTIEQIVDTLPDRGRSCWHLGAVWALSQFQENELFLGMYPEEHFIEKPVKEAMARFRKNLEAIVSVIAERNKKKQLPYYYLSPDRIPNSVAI

`CC(C)NC(=O)N1CC=C(c2cc3c(Nc4cc5ncsc5cc4F)ncnc3s2)CC1` has a remaining activity of 100 ± 4% (RIPK1; enzyme activity; 1 µM; relative to: untreated).
`Cc1ccc2c(c1)/C(=N/N=C/c1ccc(OCc3cccc(F)c3)cc1)C(=O)N2` has a remaining activity of 30.3% (MAOB; enzyme activity, inhibitor; 10 µM).
With `CC(C)NC(=O)N1CCC=C(c2cc3c(Nc4cc5ncsc5cc4F)ncnc3s2)C1` the remaining activity was 97 ± 3% (RIPK1; enzyme activity; 1 µM; relative to: untreated).
For `CC1(C)CCN(Cc2ccc(C(=O)NC[C@]3(O)CCCN(c4cc(NCc5ccccc5)ncn4)C3)c(O)c2)CC1`, the remaining activity was 96% and 99% (EHMT2 (Homo sapiens, UniProt Q96KQ7); enzyme activity; 10 µM, added: 1 µM SAM).
`CC1(C)COCN1C(=O)n1nnc2c(F)cc(F)cc21` has a remaining activity of 68 ± 3% (Monoglyceride lipase (Rattus norvegicus, UniProt Q8R431); inhibitor; rat cerebellum cytosol; 100 µM; relative to: control).
The remaining activity of `O=C(NC1CC1)N1CC=C(c2cc3c(Nc4cc5ncsc5cc4F)ncnc3s2)CC1` is reported as 98 ± 2% (RIPK1; enzyme activity; 1 µM; relative to: untreated).
`COc1ccc2c(c1)/C(=N/N=C/c1ccc(OCc3ccccc3)cc1)C(=O)N2` has a remaining activity of 66.7% (MAOB; enzyme activity, inhibitor; 10 µM).
For `O=C(Nc1ccc(OC(F)(F)F)cc1)N1CCC(Cc2cccc(Oc3ccc(C(F)(F)F)cn3)c2)CC1`, the remaining activity was 61 ± 12% (Ephx2 (Mus musculus, UniProt P34914); mouse, brain; ip, 10 mg/kg, 4 h; relative to: vehicle).
For `CCC(=O)NC1CC=C(c2cc3c(Nc4cc5ncsc5cc4F)ncnc3s2)CC1` (racemic), the remaining activity was 105 ± 3% (RIPK1; enzyme activity; 1 µM; relative to: untreated).
`Cc1ccc2c(c1)/C(=N/N=C/c1ccc(OCc3ccccc3)cc1)C(=O)N2` gave a remaining activity of 40.4% (MAOB; enzyme activity, inhibitor; 10 µM).
`COc1cc(/C=C/C(=O)CC(=O)CCc2ccc(O)c(OC)c2)ccc1O` gave a remaining activity of ~50% (Hsd3b1 (Rattus norvegicus, UniProt P22071); inhibitor; rat testicular microsomes; 100 µM, added: pregnenolone substrate; relative to: DMSO).
With `COc1ccc2c(c1)/C(=N/N=C/c1cccc(OCc3ccccc3)c1)C(=O)N2` the remaining activity was 48.4% (MAOB; enzyme activity, inhibitor; 10 µM).
The remaining activity of `Oc1ccc(C2CCc3ccc(O)cc3O2)cc1` (stereo not shown) is reported as 67.4 ± 6.2% (ALOX5 (Homo sapiens, UniProt P09917); product formation; activated human PMNL; 10 µM, added: A23187 plus arachidonic acid; relative to: control).
